Measurements from different studies.
Each numbered part is a random draw from the data of one study; scales do not carry over between parts. “And” joins repeats or separate records; there may be more than shown.
Sequence of UniProt Q13976 (whole entry, looked up): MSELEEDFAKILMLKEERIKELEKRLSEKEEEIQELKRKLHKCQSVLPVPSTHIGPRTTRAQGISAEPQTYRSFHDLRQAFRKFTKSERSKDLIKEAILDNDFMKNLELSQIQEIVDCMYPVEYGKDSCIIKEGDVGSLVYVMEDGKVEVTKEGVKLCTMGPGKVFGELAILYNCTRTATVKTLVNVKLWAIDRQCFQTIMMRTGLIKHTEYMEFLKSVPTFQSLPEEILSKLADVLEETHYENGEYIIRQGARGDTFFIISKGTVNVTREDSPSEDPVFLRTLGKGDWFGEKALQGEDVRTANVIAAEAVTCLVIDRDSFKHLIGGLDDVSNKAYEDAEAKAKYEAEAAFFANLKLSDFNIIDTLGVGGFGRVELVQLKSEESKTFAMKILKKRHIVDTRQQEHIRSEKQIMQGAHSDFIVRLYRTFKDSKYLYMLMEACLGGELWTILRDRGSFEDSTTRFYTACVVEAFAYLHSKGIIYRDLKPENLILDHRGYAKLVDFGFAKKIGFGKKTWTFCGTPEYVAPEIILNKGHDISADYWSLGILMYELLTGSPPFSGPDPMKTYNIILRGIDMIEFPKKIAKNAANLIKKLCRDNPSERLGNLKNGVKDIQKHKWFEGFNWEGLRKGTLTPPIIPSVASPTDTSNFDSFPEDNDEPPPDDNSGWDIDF
Sequence of UniProt P42681 (whole entry, looked up): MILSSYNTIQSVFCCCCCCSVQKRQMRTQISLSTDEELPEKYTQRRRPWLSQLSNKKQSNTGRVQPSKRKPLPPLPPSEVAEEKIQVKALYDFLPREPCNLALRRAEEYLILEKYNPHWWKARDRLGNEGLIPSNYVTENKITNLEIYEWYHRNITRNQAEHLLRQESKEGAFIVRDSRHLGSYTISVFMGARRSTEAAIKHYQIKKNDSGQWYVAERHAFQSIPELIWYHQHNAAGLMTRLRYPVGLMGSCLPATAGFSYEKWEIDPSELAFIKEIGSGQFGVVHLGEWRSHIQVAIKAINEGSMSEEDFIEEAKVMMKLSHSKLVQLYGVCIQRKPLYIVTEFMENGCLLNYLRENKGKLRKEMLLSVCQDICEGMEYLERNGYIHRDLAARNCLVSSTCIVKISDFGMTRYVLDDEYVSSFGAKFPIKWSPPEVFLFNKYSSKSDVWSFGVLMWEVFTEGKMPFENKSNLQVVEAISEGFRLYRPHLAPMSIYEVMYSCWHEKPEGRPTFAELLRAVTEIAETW
Sequence of UniProt P54756 (whole entry, looked up): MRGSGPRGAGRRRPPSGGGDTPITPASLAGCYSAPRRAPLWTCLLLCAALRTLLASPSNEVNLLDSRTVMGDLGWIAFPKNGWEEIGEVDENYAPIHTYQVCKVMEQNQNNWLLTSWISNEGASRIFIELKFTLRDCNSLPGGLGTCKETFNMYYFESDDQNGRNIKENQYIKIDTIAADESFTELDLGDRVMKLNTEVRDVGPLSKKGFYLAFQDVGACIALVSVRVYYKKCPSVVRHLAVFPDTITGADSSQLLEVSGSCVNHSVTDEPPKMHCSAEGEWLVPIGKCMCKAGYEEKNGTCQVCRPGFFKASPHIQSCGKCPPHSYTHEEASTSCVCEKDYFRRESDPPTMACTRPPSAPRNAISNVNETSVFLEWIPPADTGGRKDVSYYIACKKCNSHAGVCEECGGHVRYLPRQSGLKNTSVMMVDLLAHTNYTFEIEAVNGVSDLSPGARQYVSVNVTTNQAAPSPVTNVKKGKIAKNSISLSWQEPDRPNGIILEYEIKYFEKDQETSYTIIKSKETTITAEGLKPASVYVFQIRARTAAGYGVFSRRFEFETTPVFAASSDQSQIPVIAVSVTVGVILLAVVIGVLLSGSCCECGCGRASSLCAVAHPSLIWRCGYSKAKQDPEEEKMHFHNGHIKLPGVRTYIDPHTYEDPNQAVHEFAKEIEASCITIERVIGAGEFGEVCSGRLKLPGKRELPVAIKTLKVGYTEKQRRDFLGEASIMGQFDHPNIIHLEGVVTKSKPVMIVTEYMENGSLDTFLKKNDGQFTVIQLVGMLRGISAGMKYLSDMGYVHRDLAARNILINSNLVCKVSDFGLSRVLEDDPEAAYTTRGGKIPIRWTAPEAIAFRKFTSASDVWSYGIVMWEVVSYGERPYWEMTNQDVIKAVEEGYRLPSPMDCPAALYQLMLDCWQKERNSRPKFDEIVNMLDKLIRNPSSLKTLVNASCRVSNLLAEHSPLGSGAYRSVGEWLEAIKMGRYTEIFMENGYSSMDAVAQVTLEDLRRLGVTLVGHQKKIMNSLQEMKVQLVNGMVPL
Sequence of UniProt P51957 (whole entry, looked up): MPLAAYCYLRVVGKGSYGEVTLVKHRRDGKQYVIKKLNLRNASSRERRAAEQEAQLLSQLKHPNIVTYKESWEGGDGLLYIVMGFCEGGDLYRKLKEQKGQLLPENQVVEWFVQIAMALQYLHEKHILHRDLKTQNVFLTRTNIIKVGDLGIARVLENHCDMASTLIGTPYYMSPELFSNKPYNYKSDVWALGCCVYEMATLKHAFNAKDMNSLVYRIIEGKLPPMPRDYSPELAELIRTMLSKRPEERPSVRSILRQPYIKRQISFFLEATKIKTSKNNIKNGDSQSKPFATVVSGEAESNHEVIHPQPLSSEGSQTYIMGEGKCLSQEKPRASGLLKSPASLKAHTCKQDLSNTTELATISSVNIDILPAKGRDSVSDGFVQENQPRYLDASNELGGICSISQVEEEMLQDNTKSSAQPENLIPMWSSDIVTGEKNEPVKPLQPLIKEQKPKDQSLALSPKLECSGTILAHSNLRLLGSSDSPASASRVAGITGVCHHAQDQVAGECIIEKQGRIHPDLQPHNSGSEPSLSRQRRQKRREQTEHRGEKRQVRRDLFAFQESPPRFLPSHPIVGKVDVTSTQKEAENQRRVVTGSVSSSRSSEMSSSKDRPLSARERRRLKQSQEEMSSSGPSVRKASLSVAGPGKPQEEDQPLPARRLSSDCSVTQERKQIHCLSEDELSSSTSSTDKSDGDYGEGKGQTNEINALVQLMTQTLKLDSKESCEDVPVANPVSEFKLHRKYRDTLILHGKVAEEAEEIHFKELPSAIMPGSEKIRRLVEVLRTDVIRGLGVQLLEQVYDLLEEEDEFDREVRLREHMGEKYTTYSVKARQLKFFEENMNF
Sequence of UniProt P45985 (whole entry, looked up): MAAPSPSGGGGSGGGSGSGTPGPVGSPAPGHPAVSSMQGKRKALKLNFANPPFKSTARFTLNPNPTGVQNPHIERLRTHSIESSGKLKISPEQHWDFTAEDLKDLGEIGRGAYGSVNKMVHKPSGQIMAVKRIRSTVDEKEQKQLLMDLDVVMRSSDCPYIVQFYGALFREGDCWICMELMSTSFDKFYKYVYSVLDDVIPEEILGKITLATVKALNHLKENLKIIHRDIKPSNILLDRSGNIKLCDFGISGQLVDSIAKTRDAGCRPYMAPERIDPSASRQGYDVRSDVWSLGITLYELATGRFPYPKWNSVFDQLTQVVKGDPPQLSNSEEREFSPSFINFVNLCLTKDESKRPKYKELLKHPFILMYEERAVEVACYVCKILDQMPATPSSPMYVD
Sequence of UniProt Q9Y243 (whole entry, looked up): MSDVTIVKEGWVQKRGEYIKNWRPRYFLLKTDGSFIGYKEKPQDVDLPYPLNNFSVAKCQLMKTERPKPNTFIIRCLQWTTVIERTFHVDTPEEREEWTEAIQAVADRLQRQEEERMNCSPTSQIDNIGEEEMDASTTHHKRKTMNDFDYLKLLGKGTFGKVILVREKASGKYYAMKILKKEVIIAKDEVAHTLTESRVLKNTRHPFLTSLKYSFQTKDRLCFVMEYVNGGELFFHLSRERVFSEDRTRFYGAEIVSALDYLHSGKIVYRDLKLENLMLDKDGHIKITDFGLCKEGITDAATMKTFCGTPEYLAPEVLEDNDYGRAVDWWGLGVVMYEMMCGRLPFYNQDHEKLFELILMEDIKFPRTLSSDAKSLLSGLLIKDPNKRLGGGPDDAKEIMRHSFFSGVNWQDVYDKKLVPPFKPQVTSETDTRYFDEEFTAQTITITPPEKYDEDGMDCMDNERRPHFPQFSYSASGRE
Sequence of UniProt O14757 (whole entry, looked up): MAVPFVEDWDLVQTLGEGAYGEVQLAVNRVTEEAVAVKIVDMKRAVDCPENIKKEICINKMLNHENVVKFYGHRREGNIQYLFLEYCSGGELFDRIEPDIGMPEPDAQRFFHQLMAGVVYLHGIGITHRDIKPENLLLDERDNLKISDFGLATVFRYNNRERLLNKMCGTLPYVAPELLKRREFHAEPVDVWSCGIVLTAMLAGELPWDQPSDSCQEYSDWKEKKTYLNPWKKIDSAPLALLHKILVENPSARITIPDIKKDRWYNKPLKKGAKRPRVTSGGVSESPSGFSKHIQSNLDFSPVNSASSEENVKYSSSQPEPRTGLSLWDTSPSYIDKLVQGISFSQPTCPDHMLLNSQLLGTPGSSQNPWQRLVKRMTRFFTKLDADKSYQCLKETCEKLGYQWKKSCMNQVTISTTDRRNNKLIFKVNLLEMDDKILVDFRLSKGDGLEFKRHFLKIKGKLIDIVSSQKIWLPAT

Block 1
Compound: Cc1sc(C(=O)NC2COC2)cc1-n1cc(NC(=O)Nc2c(F)cccc2Cl)cn1
Tested at: 10 µM
Quantity: remaining activity
GSK3A (Homo sapiens, UniProt P49840); enzyme activity; relative to: untreated control: 128%
STK10 (Homo sapiens, UniProt O94804); enzyme activity; relative to: untreated control: 95.8%
TGFBR2 (Homo sapiens, UniProt P37173); enzyme activity; relative to: untreated control: 86.8%
Protein kinase C beta type, isoform beta-II (PRKCB, Homo sapiens, UniProt P05771); kinase activity, kinase panel profiling: 98.3%
TXK (Homo sapiens, UniProt P42681); enzyme activity; relative to: untreated control: 73.8%
HIPK4 (Homo sapiens, UniProt Q8NE63); enzyme activity; relative to: untreated control: 97.4%
MAP2K1 (Homo sapiens, UniProt Q02750); enzyme activity; relative to: untreated control: 93%
PRKG1 (Homo sapiens, UniProt Q13976); kinase activity, kinase panel profiling: 120%
NEK5 (Homo sapiens, UniProt Q6P3R8); enzyme activity; relative to: untreated control: 102%
INSRR (Homo sapiens, UniProt P14616); enzyme activity; relative to: untreated control: 70.8%
BMPR2 (Homo sapiens, UniProt Q13873); enzyme activity; relative to: untreated control: 79%
EPHA3 (Homo sapiens, UniProt P29320); enzyme activity; relative to: untreated control: 105%
MAP2K4 (Homo sapiens, UniProt P45985); enzyme activity; relative to: untreated control: 93%
FLT4 (Homo sapiens, UniProt P35916); enzyme activity; relative to: untreated control: 81.9%
MAP3K8 (Homo sapiens, UniProt P41279); enzyme activity; relative to: untreated control: 105%

Block 2
Structure (SMILES): CCC(=NO)C(C)=Cc1ccc(F)c(C)c1
Tested at: 1 µM
Quantity: viability
sample I colorectal tumour organoid; replicate 1; relative to: DMSO: 120%
sample I colorectal tumour organoid; replicate 2; relative to: DMSO: 114%
colorectal tumour organoids; relative to: DMSO: 103%
sample B colorectal tumour organoid; replicate 1; relative to: DMSO: 79.4%
sample B colorectal tumour organoid; replicate 2; relative to: DMSO: 98.1%
sample D normal epithelium organoids; human patient-derived organoids; relative to: DMSO control: 83.3% and 81%
sample C colorectal tumour organoid; replicate 1; relative to: DMSO: 90.2%
sample BA colorectal tumour organoid; relative to: DMSO: 97.4%
sample C colorectal tumour organoid; replicate 2; relative to: DMSO: 80.9%

Block 3
Target: Calcium/calmodulin-dependent protein kinase type II subunit alpha (CAMK2A, Homo sapiens, UniProt Q9UQM7)
Sequence of UniProt Q9UQM7 (whole entry, looked up): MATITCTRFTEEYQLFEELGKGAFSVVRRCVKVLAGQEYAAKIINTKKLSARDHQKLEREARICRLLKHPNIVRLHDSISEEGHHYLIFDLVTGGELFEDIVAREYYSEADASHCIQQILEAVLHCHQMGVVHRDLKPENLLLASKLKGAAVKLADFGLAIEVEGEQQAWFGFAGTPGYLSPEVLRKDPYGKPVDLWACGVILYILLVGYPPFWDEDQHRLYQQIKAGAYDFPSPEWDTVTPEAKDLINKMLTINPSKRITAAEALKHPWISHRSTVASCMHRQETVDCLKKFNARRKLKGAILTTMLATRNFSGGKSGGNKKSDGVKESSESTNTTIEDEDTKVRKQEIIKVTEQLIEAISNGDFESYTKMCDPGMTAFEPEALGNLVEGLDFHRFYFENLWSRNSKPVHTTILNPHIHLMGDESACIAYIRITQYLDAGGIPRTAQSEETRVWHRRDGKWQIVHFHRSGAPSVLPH
Read-out: enzyme activity
Action: inhibitor
Tested at: 10 µM
Quantity: inhibition
CC(O)c1cc(C(=O)N[C@@H](C)Cn2ccc(-c3ccc(C#N)c(Cl)c3)n2)n[nH]1 (some centres unmarked): -5%
CCc1cc(/C(C)=N/OCc2ccc(C3CCCCC3)c(C(F)(F)F)c2)ccc1CN1CC(C(=O)O)C1: 1%
CC(C)CC(=O)O: 19%
COc1cc(C[C@@H](CO)[C@H](CO)Cc2ccc(O)c(OC)c2)ccc1O: 11%
CCCCCCCCCCCC(=O)O: -25%
COc1ccc2[nH]c([S+]([O-])Cc3ncc(C)c(OC)c3C)nc2c1 (centres unmarked): -3%
CCCCCCCC(=O)OC: -84%
CO[C@@H]1[C@H](OC(=O)/C=C/C=C/C=C/C=C/C(=O)O)CC[C@]2(CO2)[C@H]1[C@@]1(C)O[C@@H]1CC=C(C)C: -8%
OCc1ccc(Cl)cc1Cl: -5%

Block 4
Compound: N#Cc1cnc2cnc(NCc3cccnc3)cc2c1Nc1ccc(F)c(Cl)c1
Read-out: enzyme activity
Action: inhibitor
Tested at: 0.5 µM
Relative to: control
Quantity: remaining activity
KIT (Homo sapiens, UniProt P10721): 92.9%
MAPK13 (Homo sapiens, UniProt O15264): 101%
LYN (Homo sapiens, UniProt P07948): 90.4%
IRAK4 (Homo sapiens, UniProt Q9NWZ3): 100%
BTK (Homo sapiens, UniProt Q06187): 98.3%
WNK2 (Homo sapiens, UniProt Q9Y3S1): 91.1%
MAP4K2 (Homo sapiens, UniProt Q12851): 72.2%
LRRK2 (Homo sapiens, UniProt Q5S007): 86.6%
STK38 (Homo sapiens, UniProt Q15208): 93.9%
Cyclin-dependent kinase 9, with cyclin T1 (CDK9, Homo sapiens, UniProt P50750): 91.2%
PRKCI (Homo sapiens, UniProt P41743): 94.7%
MAP2K6 (Homo sapiens, UniProt P52564): 115%
CSNK2A1 (Homo sapiens, UniProt P68400): 95.8%
PLK2 (Homo sapiens, UniProt Q9NYY3): 110%
MAP3K10 (Homo sapiens, UniProt Q02779): 101%
MKNK2 (Homo sapiens, UniProt Q9HBH9): 79.3%
PRKG1 (Homo sapiens, UniProt Q13976): 90.8%
AKT3 (Homo sapiens, UniProt Q9Y243): 95.1%
EPHA5 (Homo sapiens, UniProt P54756): 90.6%
NEK4 (Homo sapiens, UniProt P51957): 71.7%
CHEK1 (Homo sapiens, UniProt O14757): 90.2%
CSNK1A1 (Homo sapiens, UniProt P48729): 101%
PRKCD (Homo sapiens, UniProt Q05655): 95.2%

For quick reference, copied from above (block 1):
HIPK4 (Homo sapiens, UniProt Q8NE63); enzyme activity; relative to: untreated control: 97.4%
MAP2K4 (Homo sapiens, UniProt P45985); enzyme activity; relative to: untreated control: 93%
TGFBR2 (Homo sapiens, UniProt P37173); enzyme activity; relative to: untreated control: 86.8%
MAP2K1 (Homo sapiens, UniProt Q02750); enzyme activity; relative to: untreated control: 93%
